Assay results gathered from unrelated publications.
Protocols differ between the studies behind these lines. Values joined by “and” are separate records of one study, mostly repeats; a detail may differ.
TOP2A: DNA topoisomerase 2-alpha (TOP2A, Homo sapiens, UniProt P11388)
IDE: Insulin-degrading enzyme (IDE, Homo sapiens, UniProt P14735)

`c1ccc(CCCCCOCCc2ccc3occc3c2)cc1` has an Emax of no more than 57% (ATP2A2 (Sus scrofa, UniProt P11607); ATPase Vmax increase, activator; pig microsomes; 0.1 to 50 µM; reference: vehicle).
`O=c1nc(SCc2cc(F)cc(C(F)(F)F)c2)nc(SCc2ccc3nc(Cl)ccc3c2)[nH]1`: “ATP hydrolysis rate” 0.923 µM/min and 1.46 µM/min (TOP2A; ATPase activity; 31.25 µM, together with: ATP 0.25 mM).
`O=C(Nc1cccc2ncccc12)C1CCCN(S(=O)(=O)c2cccs2)C1` (stereo not shown) gave an SPR response of 1.4 RU (AASS, LKR domain (Homo sapiens, UniProt Q9UDR5); binding, surface plasmon resonance; 1.667 µM).
The specific binding of `Nc1ncnc2c1ncn2[C@@H]1O[C@H](COP(=O)(O)CP(=O)(O)OP(=O)(O)O)[C@@H](O)[C@H]1O` is reported as 5000 CCPM and 5010 CCPM (P2X purinoceptor 1 (P2RX1, Homo sapiens, UniProt P51575, K215A); saturation binding; HEK293; 103 nM).
The target engagement of `[O-][S+]1CCCCS1` (stereo not shown) is reported as 85.6% (SOD1 (Homo sapiens, UniProt P00441, G94A); measured: SOD1 dimer; SOD1 G93A transgenic mice, blood; sc, 30 mg/kg twice daily).
The current density of `Nc1ccc(C(=O)O)cc1` is reported as 109 pA/pF and 254 pA/pF and 411 pA/pF and 228 pA/pF and 314 pA/pF and 355 pA/pF (Bestrophin-2a (BEST2, Homo sapiens, UniProt Q8NFU1); whole-cell patch clamp; HEK293 transiently expressing channel; concentration not given, membrane potential 100 mV).
For `O=c1nc(SCc2cc(F)cc(C(F)(F)F)c2)nc(SCc2ccc3sccc3c2)[nH]1`, the linear DNA was 10.4% (TOP2A; DNA cleavage; 15.6 µM, together with: etoposide 50 µM).
`COc1cccc(C#Cc2ccc([C@@H]3[C@H](CO)N4C(=O)CN(C(=O)Cc5cccnc5)C[C@@H]34)cc2)c1` gave an EC50 of 6.2 µM (IDE; enzyme activity, inhibitor, fluorogenic kinetic; together with: Mca-RPPGFSAFK(Dnp)-OH substrate).
The SPR response of `CCOc1cccc(C2CC(=O)Nc3c2c(C)nn3-c2ccc3nncn3n2)c1` (stereo not shown) is reported as 1.66 RU (DDB1 (Homo sapiens, UniProt Q16531); binding, surface plasmon resonance; 0.938 µM).
`Cc1cccc(-c2ccc([C@@H]3[C@H]4CN(C(=O)c5cccnc5)CC(=O)N4[C@H]3CO)cc2)c1` has an EC50 of 4.2 µM (IDE; enzyme activity, inhibitor, fluorogenic kinetic; together with: Mca-RPPGFSAFK(Dnp)-OH substrate).
`O=C(COP(=O)(O)O)[C@@H](O)[C@H](O)[C@H](O)COP(=O)(O)O`: “thermal stability ratio” 0.259 and 0.69 and 0.864 (HMGCS1 (Homo sapiens, UniProt Q01581); thermal proteome profiling; HepG2 cell lysate; concentration not given, 57 over 37 °C; reference: compound over control).
The inhibition of `CC[C@@H]1[C@H](F)C(=O)N[C@@H]1COc1nccc2cc(C(N)=O)c(OC)cc12` is reported as 8.7% (PKN1 (Homo sapiens, UniProt Q16512); ATP-site probe binding, ActivX profiling; THP-1 cell lysate; 0.01 mM, Lys1 site).
With `COC(=O)c1cn(C)c2ccc(-c3cccnc3)cc12` the activation was 0.84 fold (RARA (Homo sapiens, UniProt P10276); reporter gene, Gal4 hybrid reporter; 10 µM; reference: vehicle).

For quick reference, copied from above:
`O=c1nc(SCc2cc(F)cc(C(F)(F)F)c2)nc(SCc2ccc3nc(Cl)ccc3c2)[nH]1`: “ATP hydrolysis rate” 0.923 µM/min and 1.46 µM/min (TOP2A; ATPase activity; 31.25 µM, together with: ATP 0.25 mM).
`O=C(Nc1cccc2ncccc12)C1CCCN(S(=O)(=O)c2cccs2)C1` (stereo not shown) gave an SPR response of 1.4 RU (AASS, LKR domain (Homo sapiens, UniProt Q9UDR5); binding, surface plasmon resonance; 1.667 µM).
